Measured values of several laboratories.
Lines come from different studies, so protocols differ. “And” joins repeats or separate records; there may be more than shown. ± marks the error that the study gave. In brackets after ≈: the same amount, converted by molar mass.

SMILES	test	system	setting	scale	quantity	value
COc1ccccc1-c1n[nH]c2nc(NC3CCN(C(=O)Cc4ccc(F)cc4F)CC3)ncc12	bead binding, competition bead pull-down, refers to: LMJF.07.0340	Leishmania donovani axenic amastigote extract	10 µM	reference: vehicle	relative abundance	0.91
O=C1NC2(CC2)COc2ncc(F)cc2[C@H]2COCCN2c2ccn3ncc1c3n2	–	Sprague-Dawley rat, female, liver	oral, 10 mg/kg/day, 4 weeks, end of treatment	–	organ-to-body weight ratio	3.6 ± 0.344%
COc1ccccc1-c1n[nH]c2nc(N[C@H]3CC[C@H](NS(=O)(=O)CC(C)C)CC3)ncc12	bead binding, competition bead pull-down, refers to: LINJ.22.0530	Leishmania donovani extract	10 µM	reference: vehicle	relative abundance	0.55
CC[C@H](C)[C@H](NC(=O)[C@H](CCCNC(=N)N)NC(=O)[C@H](CO)NC(=O)[C@H](Cc1ccc(O)cc1)NC(=O)[C@@H](NC(=O)[C@@H](NC(=O)[C@H](C)NC(=O)CNC(=O)[C@H](CCCCN)NC(=O)[C@H](CCCCN)NC(=O)CCNC(=O)CCCCCNC(=O)[C@H](CCCNC(=N)N)NC(=O)CCCCCNC(=O)[C@H](CCCNC(=N)N)NC(=O)[C@H](CCCNC(=N)N)NC(=O)CCCCCNC(=O)[C@H](CCCNC(=N)N)NC(=O)[C@H](CCCNC(=N)N)NC(=O)CCCCCNC(=O)[C@H](CCCNC(=N)N)NC(=O)[C@H](CCCNC(=N)N)NC(=O)CCCCCNC(=O)[C@@H](N)CCCNC(=N)N)C(C)C)[C@@H](C)O)C(=O)N[C@@H](CO)C(=O)NCC(=O)N[C@@H](CCC(N)=O)C(=O)N[C@@H](Cc1ccc(O)cc1)C(=O)N[C@@H](CCCCN)C(=O)O	broth microdilution	ATCC 43300 resistant strain, Mueller-Hinton broth	–	–	MIC	12 µM (≈ 42.9 µg/mL)
O=C(O)c1ccc(-c2nc(-c3ccccc3Cl)c3sccn23)cc1	–	C57BL/6 mice	dose not given, day 3, basal hematopoiesis	–	platelet count change	105% and 174% and 160%
CCCCCC1=C(NCC)C(=O)C(C/C=C(\C)CCC=C(C)C)=C(O)C1=O	RNA-seq, refers to: Irf1 regulon	mouse, striatum	dose not given	direction not given	normalised enrichment score	2.21
Cc1ccc(C2=CC(C)(C)Oc3ccc(-c4ccc(-c5ccc(C(=O)O)cc5)[nH]4)cc32)cc1	–	CD1 mouse, male, testis	10 mg/kg/day, 4 weeks after treatment, dosed for 4 weeks	–	tubules with sperm release failure	2.3% and 5% and 5.2% and 1.8% and 2.1%
CCN(Cc1ccccc1)C(=O)CCc1nc(CN2CCN(C(=O)Cc3ccc(OC)c(OC)c3)CC2)no1	beam walking test	mouse, CCI neuropathic pain model	20 mg/kg	–	beam crossing time	6.58 ± 0.526 s
CCCC[C@@H]1NC(=O)[C@H](Cc2ccc(O)cc2)NC(=O)[C@@H]2CCCN2C(=O)[C@H](CC(=O)O)NC(=O)[C@H](C)NC(=O)[C@H](Cc2ccccc2)NC(=O)[C@@H]2CSCCC(=O)N3CN(CN(C3)C(=O)CCSC[C@@H](C(=O)N[C@@H](C)C(N)=O)NC1=O)C(=O)CCSC[C@H](NC(C)=O)C(=O)N[C@@H](CC(C)(C)C)C(=O)N1CCC[C@H]1C(=O)N[C@@H](CCC(=O)O)C(=O)N[C@H](CCCCNC(=O)CCc1cn(CCOCCOCCOCCN(CCOCCOCCOCCC(=O)N[C@H]3CSCCC(=O)N4CN5CN(C4)C(=O)CCSC[C@H](NC(=O)[C@@H](CC(=O)O)NC(=O)[C@H](Cc4cccc6ccccc46)NC(=O)[C@@H]4CCCN4C3=O)C(=O)N[C@@H](CCSC)C(=O)N[C@@H](CCCCNC(=N)N)C(=O)N[C@@H](CC(=O)O)C(=O)N[C@@H](Cc3c[nH]c4ccccc34)C(=O)N[C@@H](CO)C(=O)N[C@@H]([C@@H](C)O)C(=O)N3CCC[C@H]3C(=O)N3C[C@H](O)C[C@H]3C(=O)N[C@@H](Cc3c[nH]c4ccccc34)C(=O)N[C@H](C(N)=O)CSCCC5=O)CCOCCOCCOCCn3cc(CCC(=O)NCCCC[C@H]4NC(=O)[C@H](CCC(=O)O)NC(=O)[C@@H]5CCCN5C(=O)[C@H](CC(C)(C)C)NC(=O)[C@@H](NC(C)=O)CSCCC(=O)N5CN6CN(C5)C(=O)CCSC[C@H](NC(=O)[C@H](Cc5ccc(O)cc5)NC(=O)[C@@H]5CCCN5C4=O)C(=O)N[C@@H](Cc4ccccc4)C(=O)N[C@@H](C)C(=O)N[C@@H](CC(=O)O)C(=O)N4CCC[C@H]4C(=O)N[C@@H](Cc4ccc(O)cc4)C(=O)N[C@@H](CCCC)C(=O)N[C@H](C(=O)N[C@@H](C)C(N)=O)CSCCC6=O)nn3)nn1)C(=O)N1CCC[C@H]1C(=O)N[C@@H](Cc1ccc(O)cc1)C(=O)N2	NanoString, refers to: Clec4n-mRNA	mouse bearing MC38-Nectin-4 tumour, circulating white blood cells	5 mg/kg, 24 h after dosing, unit not given	reference: vehicle	mRNA level	5.91

Repeated from above:
SMILES	test	system	setting	scale	quantity	value
O=C1NC2(CC2)COc2ncc(F)cc2[C@H]2COCCN2c2ccn3ncc1c3n2	–	Sprague-Dawley rat, female, liver	oral, 10 mg/kg/day, 4 weeks, end of treatment	–	organ-to-body weight ratio	3.6 ± 0.344%
